# Measured values pooled from the literature.
# ± gives the spread as reported.
SMILES,test,test system,setting,how to read,quantity,result
O=C(O)CCCOc1ccc(F)cc1-c1cc(-c2ccccc2C(F)(F)F)n(-c2ccccc2)n1,measured: ALT,"Crl:CD(SD) rats, female, serum","iv, 25 µg/kg, 1 day",,serum enzyme activity,25.2 ± 3.3 U/L
C[C@@H]1COCCN1c1cc(-c2ccnn2C)c2ccnc(-c3ccn[nH]3)c2n1,,female BALB/c mice,"dose not given, 48 h, added: total body irradiation 6 Gy",reference: irradiation alone,lymphocyte count,no effect
COc1cc2c(cc1OC)CN(CCc1ccc(NC(=O)c3cccc4c(=O)c5cccc(OC)c5[nH]c34)cc1)CC2,,"CD-1 mouse, male, lung","intraperitoneal, 0.3 mg/kg",,half-life,10.1 h
CC1(C)C(C=C(Cl)Cl)C1C(=O)OC(C#N)c1ccc(F)c(Oc2ccccc2)c1 (centres unmarked),measured: CYP2C8,"human, age 1 year, recombinant human CYP2C8",0.1 µM,,enzyme contribution to clearance,0.66%
Cn1cncc1-c1c(F)cncc1NC(=O)c1c(N)nn2cc(F)cnc12,,human patients,"oral, 180 mg once daily",,grade ≥3 hyperkalaemia incidence,0%
CO[C@H]1C[C@@H]2CC[C@@H](C)[C@@](O)(O2)C(=O)C(=O)N2CCCC[C@H]2C(=O)O[C@H]([C@H](C)C[C@@H]2CC[C@@H](OC(=O)NCCOCCOCCOCCOCCOCCOCCOCCOCCC(=O)N3CCc4cc(Cn5nc(-c6ccc7oc(N)nc7c6)c6c(N)ncnc65)ccc4C3)[C@H](OC)C2)C[C@@H](O)[C@H](C)/C=C(\C)[C@@H](O)[C@@H](OC)C(=O)[C@H](C)C[C@H](C)/C=C/C=C/C=C/1C,,patients with advanced solid tumours,"intravenous, 12 mg weekly, any grade",,mucositis incidence,58.3%
O[C@H]1CCCN[C@@H]1CCCn1cnc2c(Cl)c(Cl)ccc21,,"human, UGT2B7 ND+DD phenotype, plasma","oral, 150 mg twice daily, steady state",,AUCtau,1.22 µg·h/mL
COc1ccc(C[C@@H]2NC(=O)[C@H]([C@@H](C)O)NC(=O)[C@@H]3[C@@H]4CCN3C(=O)[C@@H]3Cc5cn(c6ccc(F)cc56)CCCCCCN(Cc5ccc(cc5)CCNC(=O)[C@]5(C)CCCN5C2=O)C(=O)CCC(=O)N[C@@H](C)C(=O)N[C@H](CNC(=O)CCCCC[N+](C)(C)C)C(=O)N[C@@H](Cc2cccc(c2)CNC(=O)CO4)C(=O)N3)cc1,measured: Arthralgia,humans,"concentration not given, Study-003",,participants with adverse event,3.2%
COc1cc2c(Oc3ccc4[nH]c(C)cc4c3F)ccnc2cc1OCC1(N)CC1,,paediatric recurrent refractory sarcoma,12 mg,,grade 1 or 2 Hematuria,36.4%
COc1ccnc(C(=O)N[C@H]2COC(=O)[C@H](Cc3ccccc3)[C@@H](OC(=O)C(C)C)[C@H](C)OC2=O)c1OCOC(=O)C(C)C,FOCUS PEARL groundwater modelling,soil,geometric mean input,,KOC,5780 mL/g
C[C@]1(O)C[C@@](N)(c2ccc(-c3nc4n(c3-c3ccccc3)COc3ccncc3-4)cc2)C1,,"human, advanced or metastatic solid tumours","24 mg intermittent, phase I dose escalation",,patients with decreased appetite,25%
C[C@]1(CO)Cc2ncn(-c3ccc(C#N)c(Cl)c3)c2C(=O)O1,,"healthy Japanese adults, plasma","80 mg once daily, multiple dose",,Cmax at steady state,5.18 µM
Cn1ncc(-c2nc(N[C@H]3CC[C@H](N)CC3)ncc2Cl)c1CC1CC1,HPLC-MS/MS,"patients, plasma","oral, 21 mg, day 5",,Cmax,0.13 µg/mL
CCCCCCC#Cc1cncc(-c2nnc(SCc3ccc([N+](=O)[O-])o3)n2C2CC2)c1,,mouse plasma,plasma stability,,t1/2,3.97 h
